{"data": "Experimental data of several laboratories", "note": "Every numbered part comes from another study and shows a few of its results, in no order. Values joined by “and” are separate records of one study, mostly repeats; a detail may differ.", "chain of UniProt P10721 (whole entry, unmodified, looked up)": "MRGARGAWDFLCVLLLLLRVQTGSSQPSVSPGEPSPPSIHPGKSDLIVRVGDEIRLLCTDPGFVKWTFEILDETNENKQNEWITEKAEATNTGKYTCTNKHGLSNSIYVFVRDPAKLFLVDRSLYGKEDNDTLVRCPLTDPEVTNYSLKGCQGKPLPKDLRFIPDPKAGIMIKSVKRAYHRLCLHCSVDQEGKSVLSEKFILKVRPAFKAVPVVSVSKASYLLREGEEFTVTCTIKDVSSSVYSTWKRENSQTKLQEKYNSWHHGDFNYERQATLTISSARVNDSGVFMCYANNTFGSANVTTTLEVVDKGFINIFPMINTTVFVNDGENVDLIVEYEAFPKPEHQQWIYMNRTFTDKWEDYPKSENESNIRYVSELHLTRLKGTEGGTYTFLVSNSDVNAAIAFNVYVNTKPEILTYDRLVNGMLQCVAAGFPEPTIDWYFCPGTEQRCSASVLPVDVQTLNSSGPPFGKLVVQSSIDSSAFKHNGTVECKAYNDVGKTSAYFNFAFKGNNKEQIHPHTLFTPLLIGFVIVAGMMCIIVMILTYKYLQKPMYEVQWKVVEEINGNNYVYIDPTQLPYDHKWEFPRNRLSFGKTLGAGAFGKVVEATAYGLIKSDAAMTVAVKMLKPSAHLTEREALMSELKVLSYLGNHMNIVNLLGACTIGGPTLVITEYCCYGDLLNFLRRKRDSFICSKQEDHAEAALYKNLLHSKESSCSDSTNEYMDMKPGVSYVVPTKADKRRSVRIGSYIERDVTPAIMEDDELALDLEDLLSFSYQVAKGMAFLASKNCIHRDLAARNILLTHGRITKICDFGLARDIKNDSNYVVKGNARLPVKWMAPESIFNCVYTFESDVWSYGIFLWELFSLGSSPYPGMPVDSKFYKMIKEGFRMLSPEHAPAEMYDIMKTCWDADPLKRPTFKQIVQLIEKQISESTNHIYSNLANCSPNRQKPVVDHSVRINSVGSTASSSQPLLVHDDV", "chain of UniProt Q08345 (whole entry, looked up)": "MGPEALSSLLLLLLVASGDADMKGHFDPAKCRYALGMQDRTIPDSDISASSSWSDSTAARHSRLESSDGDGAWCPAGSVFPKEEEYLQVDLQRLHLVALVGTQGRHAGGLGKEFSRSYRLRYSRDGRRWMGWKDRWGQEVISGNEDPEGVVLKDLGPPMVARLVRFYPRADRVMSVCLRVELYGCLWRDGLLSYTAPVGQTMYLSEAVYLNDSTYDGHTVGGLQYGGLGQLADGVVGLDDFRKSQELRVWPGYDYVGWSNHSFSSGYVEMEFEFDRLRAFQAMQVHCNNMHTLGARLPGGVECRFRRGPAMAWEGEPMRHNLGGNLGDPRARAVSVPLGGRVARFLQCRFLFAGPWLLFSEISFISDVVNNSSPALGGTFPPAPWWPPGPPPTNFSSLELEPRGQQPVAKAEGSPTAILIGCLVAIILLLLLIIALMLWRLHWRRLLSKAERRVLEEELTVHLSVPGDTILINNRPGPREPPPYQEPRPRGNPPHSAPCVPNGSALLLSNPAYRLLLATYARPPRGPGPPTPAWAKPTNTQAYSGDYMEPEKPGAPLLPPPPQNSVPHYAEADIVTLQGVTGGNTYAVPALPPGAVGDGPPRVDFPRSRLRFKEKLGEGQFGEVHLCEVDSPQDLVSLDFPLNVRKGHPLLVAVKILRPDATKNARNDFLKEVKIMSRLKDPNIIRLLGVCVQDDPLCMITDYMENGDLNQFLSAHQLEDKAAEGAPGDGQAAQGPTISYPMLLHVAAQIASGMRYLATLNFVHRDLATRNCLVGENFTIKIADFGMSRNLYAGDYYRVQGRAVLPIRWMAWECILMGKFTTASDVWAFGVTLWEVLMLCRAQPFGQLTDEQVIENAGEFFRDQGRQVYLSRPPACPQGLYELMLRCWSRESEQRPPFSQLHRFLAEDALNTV", "chain of UniProt Q13043 (whole entry, looked up)": "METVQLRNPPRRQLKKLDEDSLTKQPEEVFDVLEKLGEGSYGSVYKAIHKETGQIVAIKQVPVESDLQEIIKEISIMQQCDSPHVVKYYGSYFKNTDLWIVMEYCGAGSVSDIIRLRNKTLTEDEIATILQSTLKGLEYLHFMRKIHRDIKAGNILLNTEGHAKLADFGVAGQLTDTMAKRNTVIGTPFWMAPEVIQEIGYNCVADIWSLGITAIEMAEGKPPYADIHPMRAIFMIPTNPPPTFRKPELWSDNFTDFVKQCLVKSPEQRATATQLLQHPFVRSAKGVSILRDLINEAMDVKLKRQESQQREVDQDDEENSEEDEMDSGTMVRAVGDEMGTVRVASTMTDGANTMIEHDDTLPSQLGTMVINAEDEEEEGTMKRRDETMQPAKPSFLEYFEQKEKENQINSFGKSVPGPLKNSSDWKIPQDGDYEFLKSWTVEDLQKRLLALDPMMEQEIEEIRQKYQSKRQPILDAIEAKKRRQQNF", "chain of UniProt Q16584 (whole entry, looked up)": "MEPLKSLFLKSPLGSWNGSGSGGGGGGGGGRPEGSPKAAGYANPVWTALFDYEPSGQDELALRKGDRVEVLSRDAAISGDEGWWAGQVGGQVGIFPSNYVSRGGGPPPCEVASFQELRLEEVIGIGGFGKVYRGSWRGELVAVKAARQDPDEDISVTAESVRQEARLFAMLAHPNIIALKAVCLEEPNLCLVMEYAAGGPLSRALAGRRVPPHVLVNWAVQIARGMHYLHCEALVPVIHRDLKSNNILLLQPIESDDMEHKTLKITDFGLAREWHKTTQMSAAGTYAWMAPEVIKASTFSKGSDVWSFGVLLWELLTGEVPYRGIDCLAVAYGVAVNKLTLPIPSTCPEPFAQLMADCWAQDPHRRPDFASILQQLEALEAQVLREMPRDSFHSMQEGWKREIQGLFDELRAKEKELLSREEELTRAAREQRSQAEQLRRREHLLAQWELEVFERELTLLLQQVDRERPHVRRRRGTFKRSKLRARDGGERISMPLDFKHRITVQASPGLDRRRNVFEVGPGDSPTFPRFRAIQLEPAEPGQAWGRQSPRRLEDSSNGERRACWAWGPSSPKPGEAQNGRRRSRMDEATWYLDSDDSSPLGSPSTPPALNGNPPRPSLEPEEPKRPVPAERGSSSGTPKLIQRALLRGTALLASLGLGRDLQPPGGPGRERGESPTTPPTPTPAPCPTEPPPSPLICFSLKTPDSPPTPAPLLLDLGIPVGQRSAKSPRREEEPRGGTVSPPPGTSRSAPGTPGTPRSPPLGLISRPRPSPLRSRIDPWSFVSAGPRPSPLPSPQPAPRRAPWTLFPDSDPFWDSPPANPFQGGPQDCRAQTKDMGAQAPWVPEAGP", "chain of UniProt Q13546 (whole entry, looked up)": "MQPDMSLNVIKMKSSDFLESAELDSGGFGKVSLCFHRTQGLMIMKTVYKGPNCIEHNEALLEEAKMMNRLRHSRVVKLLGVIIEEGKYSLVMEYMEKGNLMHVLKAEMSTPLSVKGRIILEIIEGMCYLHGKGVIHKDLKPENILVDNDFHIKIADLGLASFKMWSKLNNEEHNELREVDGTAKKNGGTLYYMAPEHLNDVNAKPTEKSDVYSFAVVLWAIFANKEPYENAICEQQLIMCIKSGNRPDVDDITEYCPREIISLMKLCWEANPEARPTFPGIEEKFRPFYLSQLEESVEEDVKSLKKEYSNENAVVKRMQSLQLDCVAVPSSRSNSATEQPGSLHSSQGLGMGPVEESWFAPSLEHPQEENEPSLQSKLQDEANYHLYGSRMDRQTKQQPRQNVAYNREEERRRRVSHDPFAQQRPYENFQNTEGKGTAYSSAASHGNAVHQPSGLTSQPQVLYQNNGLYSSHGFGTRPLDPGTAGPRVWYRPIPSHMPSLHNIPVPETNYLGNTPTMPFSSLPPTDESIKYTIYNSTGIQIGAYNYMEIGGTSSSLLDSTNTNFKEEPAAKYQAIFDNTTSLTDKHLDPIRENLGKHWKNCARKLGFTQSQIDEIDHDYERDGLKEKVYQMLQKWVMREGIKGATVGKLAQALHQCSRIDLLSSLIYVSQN"}
{"data": "Series 1", "SMILES": "CN(C)CC#Cc1ccc(OCCCc2sc(N3CCc4cccc(C(=O)Nc5nc6ccccc6s5)c4C3)nc2C(=O)O)c(F)c1", "read-out": "cell-free assay", "technique": "competition with immobilised ligand", "concentration": "1 µM"}
{"target": "Mast/stem cell growth factor receptor Kit (KIT, Homo sapiens, UniProt P10721)", "remaining binding": "97%"}
{"target": "Mitogen-activated protein kinase kinase kinase 11 (MAP3K11, Homo sapiens, UniProt Q16584)", "remaining binding": "100%"}
{"target": "Receptor-interacting serine/threonine-protein kinase 1 (RIPK1, Homo sapiens, UniProt Q13546)", "remaining binding": "92%"}
{"target": "Serine/threonine-protein kinase 4 (STK4, Homo sapiens, UniProt Q13043)", "remaining binding": "100%"}
{"target": "Mast/stem cell growth factor receptor Kit (KIT, Homo sapiens, UniProt P10721, D816V)", "remaining binding": "100%"}
{"target": "Mast/stem cell growth factor receptor Kit (KIT, Homo sapiens, UniProt P10721, A829P)", "remaining binding": "100%"}
{"target": "Serine/threonine-protein kinase N1 (PKN1, Homo sapiens, UniProt Q16512)", "remaining binding": "91%"}
{"target": "Serine/threonine-protein kinase DCLK3 (DCLK3, Homo sapiens, UniProt Q9C098)", "remaining binding": "100%"}
{"target": "RAC-alpha serine/threonine-protein kinase (AKT1, Homo sapiens, UniProt P31749)", "remaining binding": "100%"}
{"target": "Cyclin-dependent kinase-like 1 (CDKL1, Homo sapiens, UniProt Q00532)", "remaining binding": "100%"}
{"target": "Serine/threonine-protein kinase TAO1 (TAOK1, Homo sapiens, UniProt Q7L7X3)", "remaining binding": "100%"}
{"target": "Tyrosine-protein kinase ABL1, non-phosphorylated (ABL1, Homo sapiens, UniProt P00519)", "remaining binding": "100%"}
{"target": "Epithelial discoidin domain-containing receptor 1 (DDR1, Homo sapiens, UniProt Q08345)", "remaining binding": "100%"}
{"target": "Ribosomal protein S6 kinase alpha-2, C-terminal kinase domain (RPS6KA2, Homo sapiens, UniProt Q15349)", "remaining binding": "94%"}
{"target": "Non-receptor tyrosine-protein kinase TNK1 (TNK1, Homo sapiens, UniProt Q13470)", "remaining binding": "98%"}
{"target": "Cyclin-dependent kinase-like 5 (CDKL5, Homo sapiens, UniProt O76039)", "remaining binding": "96%"}
{"data": "Series 2", "target": "Proto-oncogene tyrosine-protein kinase receptor Ret (RET, Homo sapiens, UniProt P07949)", "read-out": "enzyme activity", "action": "inhibitor", "concentration": "0.5 µM", "reference": "control", "chain of UniProt P07949 (whole entry, looked up)": "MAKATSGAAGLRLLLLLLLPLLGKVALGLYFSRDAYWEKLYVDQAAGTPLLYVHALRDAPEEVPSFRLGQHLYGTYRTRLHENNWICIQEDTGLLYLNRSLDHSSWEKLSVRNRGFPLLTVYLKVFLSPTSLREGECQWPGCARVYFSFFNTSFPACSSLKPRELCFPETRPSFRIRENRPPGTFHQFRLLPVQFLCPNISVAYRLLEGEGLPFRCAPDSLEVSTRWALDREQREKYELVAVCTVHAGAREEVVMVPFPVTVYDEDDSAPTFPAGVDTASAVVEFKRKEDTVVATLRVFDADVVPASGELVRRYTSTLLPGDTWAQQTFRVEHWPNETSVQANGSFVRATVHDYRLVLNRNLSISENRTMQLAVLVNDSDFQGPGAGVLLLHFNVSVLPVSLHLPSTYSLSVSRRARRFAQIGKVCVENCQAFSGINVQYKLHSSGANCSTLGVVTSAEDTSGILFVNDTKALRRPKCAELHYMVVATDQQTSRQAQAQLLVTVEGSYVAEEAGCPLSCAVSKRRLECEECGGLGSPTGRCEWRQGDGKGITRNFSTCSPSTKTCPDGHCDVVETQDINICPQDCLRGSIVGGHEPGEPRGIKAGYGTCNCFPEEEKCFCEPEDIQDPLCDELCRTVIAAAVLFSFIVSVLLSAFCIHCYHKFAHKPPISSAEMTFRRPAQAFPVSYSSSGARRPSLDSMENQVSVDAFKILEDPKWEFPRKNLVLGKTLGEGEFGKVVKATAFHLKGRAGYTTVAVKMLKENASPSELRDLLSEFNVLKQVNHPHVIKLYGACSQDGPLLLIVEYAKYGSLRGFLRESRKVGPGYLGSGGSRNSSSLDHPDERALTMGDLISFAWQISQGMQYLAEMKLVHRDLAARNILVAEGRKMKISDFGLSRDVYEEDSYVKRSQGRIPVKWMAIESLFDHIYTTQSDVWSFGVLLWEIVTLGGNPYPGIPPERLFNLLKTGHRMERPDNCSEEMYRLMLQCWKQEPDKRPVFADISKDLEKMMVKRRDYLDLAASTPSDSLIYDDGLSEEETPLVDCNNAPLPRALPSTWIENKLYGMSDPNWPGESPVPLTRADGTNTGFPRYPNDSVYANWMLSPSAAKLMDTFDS"}
{"SMILES": "O=C(Nc1cccc(Nc2nccc(Nc3cccc(C(F)(F)F)c3)n2)c1)C1CC1", "remaining activity [%]": 88.6}
{"SMILES": "O=c1cc(-c2cccc3c2Sc2ccccc2S3)oc(N2CCOCC2)c1", "remaining activity [%]": 82.4}
{"SMILES": "Cc1nc2cc3nc(-c4cccs4)cnc3cc2n1C", "remaining activity [%]": 68.9}
{"SMILES": "N#Cc1c(NC(=O)c2cccc3ccccc23)sc2c1CCCC2", "remaining activity [%]": 105}
{"SMILES": "Cc1cn(-c2cc(NC(=O)c3ccc(C)c(Nc4nccc(-c5cccnc5)n4)c3)cc(C(F)(F)F)c2)cn1", "remaining activity [%]": 70.5}
{"SMILES": "Cn1nc2c3c(cccc31)C(=O)c1ccccc1-2", "remaining activity [%]": 83.8}
{"SMILES": "Ic1cccc(CSc2nnc(-c3ccncc3)o2)c1", "remaining activity [%]": 103}
{"SMILES": "N#C/C(=C\\c1ccc(O)c(O)c1)C(=O)NCc1ccccc1", "remaining activity [%]": 108}
{"SMILES": "CCOc1nc(NC(=O)Cc2cc(OC)ccc2OC)cc(N)c1C#N", "remaining activity [%]": 104}
{"SMILES": "COc1cc2ncnc(Nc3cccc(Cl)c3)c2cc1OC", "remaining activity [%]": 35.3}
{"SMILES": "COc1cc2ncnc(Nc3ccc(O)c(Br)c3)c2cc1OC", "remaining activity [%]": 21.4}
{"SMILES": "CCN(CC)C(=O)c1ccc(Nc2nc(OCC3CCCCC3)c3[nH]cnc3n2)cc1", "remaining activity [%]": 7.65}
{"SMILES": "Cc1cc2ncc(-c3ccccc3)nc2cc1C", "remaining activity [%]": 88}
{"SMILES": "Nc1cccc(-c2cc3c(Oc4cccc(O)c4)ncnc3[nH]2)c1", "remaining activity [%]": -0.229}
{"SMILES": "CN(C)C[C@H]1CCn2c(c(C3=C(c4cn(C)c5ccccc45)C(=O)NC3=O)c3ccccc32)C1", "remaining activity [%]": 99.7}
{"SMILES": "COc1cc2c(cc1OC)-c1[nH]nc(Nc3cccc(F)c3)c1C2", "remaining activity [%]": 83.6}
{"SMILES": "O=C(NC(NC(=S)Nc1ccc(F)c([N+](=O)[O-])c1)C(Cl)(Cl)Cl)C(c1ccccc1)c1ccccc1 (stereo not shown)", "remaining activity [%]": 103}
{"SMILES": "O=C1c2ccccc2-c2n[nH]c3cccc1c23", "remaining activity [%]": 34.2}
{"SMILES": "O=C1C(Cl)=C(N2C(=O)CCC2=O)C(=O)c2ccccc21", "remaining activity [%]": 98}
{"SMILES": "c1ccc(-c2cnc(Nc3ccc(OCCN4CCCC4)cc3)s2)cc1", "remaining activity [%]": 84.2}
{"SMILES": "CN([C@@H](Cc1ccc(OS(=O)(=O)c2cccc3cnccc23)cc1)C(=O)N1CCN(c2ccccc2)CC1)S(=O)(=O)c1cccc2cnccc12", "remaining activity [%]": 105}
{"SMILES": "CCN(CC)CCNC(=O)c1c(C)[nH]c(/C=C2\\C(=O)Nc3ccc(Cl)cc32)c1C", "remaining activity [%]": 2.47}
{"SMILES": "c1ccc(-c2[nH]ncc2-c2ccnc3ccccc23)nc1", "remaining activity [%]": 93.8}
{"data": "Series 3", "SMILES": "CC(C)C(=O)N1CCN(c2nc(OC[C@@H]3CCCN3C)nc3c2CCN(c2cccc4cccc(Cl)c24)C3)C[C@@H]1CC#N", "target": "GTPase HRas (HRAS, Homo sapiens, UniProt P01112)", "read-out": "binding", "technique": "NanoBRET", "cells": "HEK293 (live)", "direction": "lower = stronger binding"}
{"setting": "0.09151 µM", "target engagement": "100% and 104% and 96.3%"}
{"setting": "1.523 µM", "target engagement": "147% and 153% and 132%"}
{"setting": "0.5686 µM", "target engagement": "98.8% and 104% and 110%"}
{"data": "Series 4", "SMILES": "CC(C)n1cnc(-c2ccc(F)cc2)c1-c1ncc(C(=O)Nc2ccc(N3CCN(C)CC3)cc2)[nH]1", "technique": "phase 2a trial", "species": "idiopathic pulmonary fibrosis patients"}
{"setting": "60 mg once daily, adverse event grade 5", "patients with cardiac failure": "0%"}
{"setting": "dose not given, adverse event grade 1, all dose arms pooled", "patients with cardiac failure": "0%"}
{"setting": "dose not given, adverse event grade 3, all dose arms pooled", "patients with cardiac failure": "0%"}
{"setting": "60 mg once daily, adverse event grade 4", "patients with cardiac failure": "0%"}
{"setting": "30 mg once daily, adverse event grade 5", "patients with cardiac failure": "0%"}
{"setting": "60 mg once daily, adverse event grade 1", "patients with cardiac failure": "0%"}
{"setting": "60 mg once daily, adverse event grade 3", "patients with cardiac failure": "0%"}
{"note": "Repeated from above (series 1):"}
{"target": "Mast/stem cell growth factor receptor Kit (KIT, Homo sapiens, UniProt P10721, A829P)", "remaining binding": "100%"}
{"target": "Serine/threonine-protein kinase N1 (PKN1, Homo sapiens, UniProt Q16512)", "remaining binding": "91%"}
{"target": "Serine/threonine-protein kinase DCLK3 (DCLK3, Homo sapiens, UniProt Q9C098)", "remaining binding": "100%"}
